# Published values gathered from unrelated publications.
# Compare with care: the assays were run in different laboratories. ± gives the spread as reported.
Structure (SMILES),tested on,test,test system,setting,how to read,measurement,result
COc1cc(O)ccc1CCC(c1ccc(O)cc1)c1cc2c(c(C)c1O)OC(c1ccc(O)cc1)CC2 (mixture of isomers),,refers to: docosahexaenoic acid,human whole blood,"0.3 µM, added: Escherichia coli",,amount,38700 ± 3520 pg/mL blood
CN1CCCNC(=O)c2cccc(c2)C(=O)NCCCN(C)CCCNc2cccc3c2C(=O)c2cccc(c2C3=O)NCCC1,SAS,"RNA-Seq, refers to: KPNA4 mRNA",,"1 µM, 6 h",baseline: untreated cells,log2 fold change,-1.41
COC1CN([C@H]2CC[C@H]([C@@]3(C)Oc4c(Cl)cc(C(=O)NCc5c(SC)cc(C)[nH]c5=O)c(C)c4O3)CC2)C1,,"RNA-seq, refers to: BTBD11","human, whole blood","dose not given, 24 h",baseline: pretreatment baseline,log2 fold change,1.1
Cc1ncsc1-c1ccc(C(C)NC(=O)C2CC(O)CN2C(=O)C(NC(=O)CCCCCCCCCCN2CCCC(Nc3ncc(Cl)c(Nc4ccccc4S(=O)(=O)C(C)C)n3)C2)C(C)(C)C)cc1 (stereo not drawn),22Rv1,"RNA-seq, refers to: RNF144A mRNA",,concentration not given,baseline: DMSO,log2 fold change,-1.78
COc1ccc(C(=O)CCc2cc(C(CCc3ccc(O)cc3OC)c3ccc(O)cc3)c(O)cc2OC)cc1 (racemic),,,human blood,"3 µM, added: A23187",,4-HDHA level,38 ± 10 pg/mL
Nc1ncc(-c2cc(-c3cnn(CC(F)(F)F)c3)ncc2F)nc1C(=O)NC1CNCC(F)C1 (stereo not drawn),PIK4CB,KINOMEscan,,1 µM,baseline: DMSO control,remaining binding,100%
CNS(=O)(=O)Nc1nccc(Cc2c(C)c3ccc(Oc4ncccc4F)cc3oc2=O)c1F,OCI-Ly7,cell viability,,7 days,,IC50,> 1000 nM
C=CC(=O)Nc1cccc(Cn2ncc3cnc(Nc4cnn(CCOC)c4)nc32)c1,RIOK2 human,"binding, KINOMEscan",,100 nM,lower = stronger binding,percent of control,67%
CCN(CC)CC(=O)Nc1cccc(-n2cc(-c3ccc4ccc(-c5cn(-c6cccc(NC(=O)CN(CC)CC)c6)nn5)cc4c3)nn2)c1,RCC4,"PCR array, refers to: VEGFC",,"5 x IC50, 4 h, normoxia",baseline: untreated,fold regulation,-1.13 fold
